Assay results of several laboratories.
Each line is one published result; not all experiments were run side by side. Several values in a cell are separate wells, animals, samples, runs or records. ± gives the spread as reported.
U2AF2: U2AF2 148-342 (Homo sapiens, UniProt P26368)
Sequence of UniProt P26368 (whole entry, looked up): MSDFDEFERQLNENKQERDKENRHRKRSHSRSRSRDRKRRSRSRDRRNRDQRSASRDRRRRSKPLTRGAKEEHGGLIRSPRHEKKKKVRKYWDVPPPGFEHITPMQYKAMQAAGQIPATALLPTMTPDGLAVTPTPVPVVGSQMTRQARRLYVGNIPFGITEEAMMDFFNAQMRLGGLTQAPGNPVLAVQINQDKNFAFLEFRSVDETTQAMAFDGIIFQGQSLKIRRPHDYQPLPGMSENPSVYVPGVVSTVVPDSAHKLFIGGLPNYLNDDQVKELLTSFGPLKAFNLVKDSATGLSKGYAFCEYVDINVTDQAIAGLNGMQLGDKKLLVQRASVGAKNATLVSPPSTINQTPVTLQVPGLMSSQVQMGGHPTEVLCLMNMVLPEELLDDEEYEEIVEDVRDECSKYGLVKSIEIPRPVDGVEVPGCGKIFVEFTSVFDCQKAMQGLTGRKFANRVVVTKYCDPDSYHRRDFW
SPT15 full length assumed: SPT15 full length assumed (Saccharomyces cerevisiae, UniProt P13393)
Sequence of UniProt P13393 (whole entry, looked up): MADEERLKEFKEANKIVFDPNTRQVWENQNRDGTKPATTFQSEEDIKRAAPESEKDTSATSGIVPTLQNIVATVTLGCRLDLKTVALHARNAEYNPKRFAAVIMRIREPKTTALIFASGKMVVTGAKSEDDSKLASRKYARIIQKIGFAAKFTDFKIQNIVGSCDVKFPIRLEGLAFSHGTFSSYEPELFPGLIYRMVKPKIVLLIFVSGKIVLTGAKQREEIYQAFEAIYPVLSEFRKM
B1: CSRP2, human; sequence looked up; chain MPVWGGGNKCGACGRTVYHAEEVQCDGRSFHRCCFLCMVCRKNLDSTTVAIHDEEIYCKSCYGKKYGPKGYGYGQGAGTLNMDRGERLGIKPESVQPHRPTTNPNTSKFAQKYGGAEKCSRCGDSVYAAEKIIGAGKPWHKNCFRCAKCGKSLESTTLTEKEGEIYCKGCYAKNFGPKGFGYGQGAGALVHAQ
B2: human AP1B1; sequence looked up; chain MTDSKYFTTTKKGEIFELKAELNSDKKEKKKEAVKKVIASMTVGKDVSALFPDVVNCMQTDNLELKKLVYLYLMNYAKSQPDMAIMAVNTFVKDCEDPNPLIRALAVRTMGCIRVDKITEYLCEPLRKCLKDEDPYVRKTAAVCVAKLHDINAQLVEDQGFLDTLKDLISDSNPMVVANAVAALSEIAESHPSSNLLDLNPQSINKLLTALNECTEWGQIFILDCLANYMPKDDREAQSICERVTPRLSHANSAVVLSAVKVLMKFMEMLSKDLDYYGTLLKKLAPPLVTLLSAEPELQYVALRNINLIVQKRPEILKHEMKVFFVKYNDPIYVKLEKLDIMIRLASQANIAQVLAELKEYATEVDVDFVRKAVRAIGRCAIKVEQSAERCVSTLLDLIQTKVNYVVQEAIVVIKDIFRKYPNKYESVIATLCENLDSLDEPEARAAMIWIVGEYAERIDNADELLESFLEGFHDESTQVQLQLLTAIVKLFLKKPTETQELVQQVLSLATQDSDNPDLRDRGYIYWRLLSTDPVAAKEVVLAEKPLISEETDLIEPTLLDELICYIGTLASVYHKPPSAFVEGGRGVVHKSLPPRTASSESAESPETAPTGAPPGEQPDVIPAQGDLLGDLLNLDLGPPVSGPPLATSSVQMGAVDLLGGGLDSLMGDEPEGIGGTNFVAPPTAAVPANLGAPIGSGLSDLFDLTSGVGTLSGSYVAPKAVWLPAMKAKGLEISGTFTRQVGSISMDLQLTNKALQVMTDFAIQFNRNSFGLAPAAPLQVHAPLSPNQTVEISLPLSTVGSVMKMEPLNNLQVAVKNNIDVFYFSTLYPLHILFVEDGKMDRQMFLATWKDIPNENEAQFQIRDCPLNAEAASSKLQSSNIFTVAKRNVEGQDMLYQSLKLTNGIWVLAELRIQPGNPSCTDLELSLKCRAPEVSQHVYQAYETILKN
B3: human DDX17; sequence looked up; chain MPTGFVAPILCVLLPSPTREAATVASATGDSASERESAAPAAAPTAEAPPPSVVTRPEPQALPSPAIRAPLPDLYPFGTMRGGGFGDRDRDRDRGGFGARGGGGLPPKKFGNPGERLRKKKWDLSELPKFEKNFYVEHPEVARLTPYEVDELRRKKEITVRGGDVCPKPVFAFHHANFPQYVMDVLMDQHFTEPTPIQCQGFPLALSGRDMVGIAQTGSGKTLAYLLPAIVHINHQPYLERGDGPICLVLAPTRELAQQVQQVADDYGKCSRLKSTCIYGGAPKGPQIRDLERGVEICIATPGRLIDFLESGKTNLRRCTYLVLDEADRMLDMGFEPQIRKIVDQIRPDRQTLMWSATWPKEVRQLAEDFLRDYTQINVGNLELSANHNILQIVDVCMESEKDHKLIQLMEEIMAEKENKTIIFVETKRRCDDLTRRMRRDGWPAMCIHGDKSQPERDWVLNEFRSGKAPILIATDVASRGLDVEDVKFVINYDYPNSSEDYVHRIGRTARSTNKGTAYTFFTPGNLKQARELIKVLEEANQAINPKLMQLVDHRGGGGGGGGRSRYRTTSSANNPNLMYQDECDRRLRGVKDGGRRDSASYRDRSETDRAGYANGSGYGSPNSAFGAQAGQYTYGQGTYGAAAYGTSSYTAQEYGAGTYGASSTTSTGRSSQSSSQQFSGIGRSGQQPQPLMSQQFAQPPGATNMIGYMGQTAYQYPPPPPPPPPSRK
B4: human CAP2; sequence looked up; chain ANMQGLVERLERAVSRLESLSAESHRPPGNCGEVNGVIAGVAPSVEAFDKLMDSMVAEFLKNSRILAGDVETHAEMVHSAFQAQRAFLLMASQYQQPHENDVAALLKPISEKIQEIQTFRERNRGSNMFNHLSAVSESIPALGWIAVSPKPGPYVKEMNDAATFYTNRVLKDYKHSDLRHVDWVKSYLNIWSELQAYIKEHHTTGLTWSKTGPVASTVSAFSVLSSGPGLPPPPPPLPPPGPPPLFENEGKKEESSPSRSALFAQLNQGEAITKGLRHVTDDQKTYKNPSLRAQGGQTQSPTKSHTPSPTSPKSYPSQKHAPVLELEGKKWRVEYQEDRNDLVISETELKQVAYIFKCEKSTIQIKGKVNSIIIDNCKKLGLVFDNVVGIVEVINSQDIQIQVMGRVPTISINKTEGCHIYLSEDALDCEIVSAKSSEMNILIPQDGDYREFPIPEQFKTAWDGSKLITEPAEIMA
Sequence of UniProt Q00535 (whole entry, looked up): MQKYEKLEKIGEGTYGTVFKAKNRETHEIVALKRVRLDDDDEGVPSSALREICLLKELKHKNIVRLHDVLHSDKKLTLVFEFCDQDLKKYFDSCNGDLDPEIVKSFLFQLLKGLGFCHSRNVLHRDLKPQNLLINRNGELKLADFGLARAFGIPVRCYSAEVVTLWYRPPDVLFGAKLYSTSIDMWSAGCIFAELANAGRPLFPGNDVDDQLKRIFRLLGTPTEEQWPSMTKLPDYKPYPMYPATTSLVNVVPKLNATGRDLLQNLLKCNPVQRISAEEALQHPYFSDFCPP

For `KEAFWDRCLYVINLMSSKMLQINA`, the activity change was 17% (Cyclin-dependent kinase 5, with p25 (CDK5, Homo sapiens, UniProt Q00535); phosphotransferase activity, radiometric; peptide; concentration not given, 10% DMSO, together with: histone substrate; relative to: p5-WT peptide).
The binding intensity of `GSGAGPETLV` is reported as 0.347 (construct, MBP fusion, human SCRIB, PDZ 3-4; automated holdup; peptide, crude extract; concentration not given, uncorrected, unit not given; relative to: biotin control resin, higher = stronger binding).
`UAAUAAUUU (ssRNA)` gave a Kd of 5070 nM (U2AF2; sequencing of bound RNA; RNA; motif only).
For `Relaxin`, the cAMP increase was roughly 2 % above basal (RXFP1; AlphaScreen; HEK293 expressing RXFP1; 8 pM).
Under “normalised SPR binding response”, `GGWVEKETYY` is recorded as 3.5 normalised RU (construct, MBP fusion, human SCRIB, PDZ 3-4; surface plasmon resonance; peptide; concentration not given; higher = stronger binding).
`human hornerin`: “log2 fold change” -0.46 (PP6C (human); co-immunoprecipitation, IP-MS; CYB5R4 knockout cells; concentration not given; relative to: CYB5R4 knockout over parental).
With `α-terpineol` the fold induction was 1.15 fold (Nrf2; Nrf2 induction, inducer; relative to: control).
For `GGAGGGGAG (ssRNA)`, the Kd was 2010 nM (U2AF2; sequencing of bound RNA; RNA; motif only).
`CCGGGTTCCTGTTTCCCGGCCGCGGCCACTCCAGATCAAGTCAATCGGTCC (dsDNA; 5'-amino-C6 primer)` gave a Kd of 2.21 ± 0.27 nM (SPT15 full length assumed; array; double-stranded DNA, one strand shown; TBP alone).
`SVWLRKETRV` has a binding intensity of 0.495 (construct, MBP fusion, human SCRIB, PDZ 3-4; automated holdup; peptide, crude extract; concentration not given, corrected by standard peak, unit not given; relative to: biotin control resin, higher = stronger binding).
`VVVGAAGVGK` has a remaining protein of 0.759 and 0.754 and 0.751 (HLA-A*11:01 peptide-β2M single-chain trimer; western blot, refers to: pMHC-I; peptide, 293T cells; 18 h, unit not given, together with: 100 µg/mL cycloheximide; relative to: time zero).
`GSGAGSETKM` has a binding intensity of 0.0778 (construct, MBP fusion, human SCRIB, PDZ 3-4; automated holdup; peptide, crude extract; concentration not given, uncorrected, unit not given; relative to: biotin control resin, higher = stronger binding).
Under “log2 fold change”, `B1 (CSRP2, human)` is recorded as -1.91 (PP6C (human); co-immunoprecipitation, IP-MS; CYB5R4 knockout cells; concentration not given; relative to: CYB5R4 knockout over parental).
For `EKPIDSETKM`, the binding intensity was 0.165 (construct, MBP fusion, human SCRIB, PDZ 3-4; automated holdup; peptide, crude extract; concentration not given, corrected by standard peak, unit not given; relative to: biotin control resin, higher = stronger binding).
`B2 (human AP1B1)` — result for “log2 fold change”: -1.63 (PP6C (human); co-immunoprecipitation, IP-MS; CYB5R4 knockout cells; concentration not given; relative to: CYB5R4 knockout over parental).
For `GEMVGQARILAQATSDLVNAIKDA`, “rupture force FWHM lower side” read 17 pN (vinculin head domain Vd1; complex rupture, AFM single-molecule force spectroscopy; peptide; multiple traces, C-terminal pulling, 800 nm/s).
`B3 (human DDX17)` — result for “log2 fold change”: -0.23 (PP6C (human); co-immunoprecipitation, IP-MS; CYB5R4 knockout cells; concentration not given; relative to: CYB5R4 knockout over parental).
`phosphatidylinositol 3,4,5-trisphosphate` — result for “log2 fold change”: -0.316 (adenosine A2A receptor thermostabilised; equilibrium dialysis LC-MS; concentration not given; relative to: no protein).
`transthyretin` has an enrichment fold of 101 (hnRNPA2B1 human; pull-down LC-MS/MS; relative to: blank).
For `B4 (human CAP2)`, “log2 fold change” read -0.19 (PP6C (human); co-immunoprecipitation, IP-MS; CYB5R4 knockout cells; concentration not given; relative to: CYB5R4 knockout over parental).
For `GSGAGRETEV`, the binding intensity was 0.628 (construct, MBP fusion, human SCRIB, PDZ 3-4; automated holdup; peptide, crude extract; concentration not given, uncorrected, unit not given; relative to: biotin control resin, higher = stronger binding).
For `VVVGASGVGK`, the remaining protein was 0.812 and 0.759 and 0.774 (HLA-A*11:01 peptide-β2M single-chain trimer; western blot, refers to: pMHC-I; peptide, 293T cells; 12 h, unit not given, together with: 100 µg/mL cycloheximide; relative to: time zero).
The Kd of `TCCTGAAGGGGCACCCTAGCTTGGTCCTATCGTCGTCAAGTCAATCGGTCC (dsDNA; 5'-amino-C6 primer)` is reported as 3.24 ± 0.24 nM (SPT15 full length assumed; array; double-stranded DNA, one strand shown; TBP alone).

For quick reference, copied from above:
`GSGAGSETKM` has a binding intensity of 0.0778 (construct, MBP fusion, human SCRIB, PDZ 3-4; automated holdup; peptide, crude extract; concentration not given, uncorrected, unit not given; relative to: biotin control resin, higher = stronger binding).
The binding intensity of `GSGAGPETLV` is reported as 0.347 (construct, MBP fusion, human SCRIB, PDZ 3-4; automated holdup; peptide, crude extract; concentration not given, uncorrected, unit not given; relative to: biotin control resin, higher = stronger binding).
`CCGGGTTCCTGTTTCCCGGCCGCGGCCACTCCAGATCAAGTCAATCGGTCC (dsDNA; 5'-amino-C6 primer)` gave a Kd of 2.21 ± 0.27 nM (SPT15 full length assumed; array; double-stranded DNA, one strand shown; TBP alone).
